Published values from different studies.
Lines come from different studies, so protocols differ.
MAP3K20: Mitogen-activated protein kinase kinase kinase 20 (MAP3K20, Homo sapiens, UniProt Q9NYL2)

SMILES | target | assay | system | conditions | scale | measurement | value
CCCCCCCCCCCCC/C=C/C=O | Mitogen-activated protein kinase kinase kinase 20, Cys22 (MAP3K20, Homo sapiens, UniProt Q9NYL2) | competitive isoTOP-ABPP | proteome, soluble, MDA-MB-231 | 100 µM, 60 min, added: iodoacetamide probe | relative to: DMSO over compound-treated, higher = stronger cysteine blockade | isoTOP-ABPP competition ratio | 1.1
CCN1CCN(Cc2ccc(NC(=O)c3ccc(C)c(NC(=O)c4cncc(-c5cnn(C)c5)c4)c3)cc2C(F)(F)F)CC1 | MAP3K20 | binding, competition with immobilised ligand | – | 1 µM | – | remaining binding | 4.5%
CCn1cc(C(=O)O)c(=O)c2c(N)c(F)c(NC3CCCCC3)cc21 | MAP3K20 | kinase activity | – | 0.1 µM, added: ATP at Km | – | inhibition | -5.7%
C=CC(=O)N1CCCC(n2c(=O)c3ncccc3n(Cc3ccc(Oc4ccccc4)cc3)c2=O)C1 (stereo not shown) | MAP3K20 | cell-free assay, competition with immobilised ligand | – | 1 µM | – | remaining binding | 83%
CCN1CCN(Cc2ccc(C(=O)Nc3ccc(C)c(NCc4cnc5[nH]ccc5c4OC)c3)cc2C(F)(F)F)CC1 | MAP3K20 | binding, competition with immobilised ligand | – | 1 µM | – | remaining binding | 0.6%
Cc1cnc2nc1Nc1cccc(c1)COC/C=C/COCc1cc(ccc1OCCN1CCOCC1)N2 | MAP3K20 | binding, competition with immobilised ligand | – | 0.1 µM | – | remaining binding | 100%
COc1c(Cl)cccc1Nc1c(-c2ccncc2C#C[C@@]2(C)CCCN2C(=O)/C=C/CN(C)C)[nH]c2c1C(=O)NCC2 | MAP3K20 | binding, competition with immobilised ligand | – | 3 µM | – | remaining binding | 84%
C=CC(=O)N1CCc2ccc(-n3c(=O)ccc4cnc5ccc(-c6cnn(C)c6)cc5c43)cc21 | MAP3K20 | KINOMEscan | – | 1 µM | relative to: DMSO control | remaining binding | 95%
C=CC(=O)N1Cc2nc(-c3cc(-c4cc(Cl)cnc4Cl)c(F)cc3F)n(-c3ccncn3)c2C1 | MAP3K20 | cell-free assay, inhibitor | – | 1 µM | – | inhibition | 1.9%
Nc1ncc(-c2cc(-c3cnn(CC(F)(F)F)c3)ncc2F)nc1C(=O)NC1CNCC(F)C1 (stereo not shown) | MAP3K20 | enzyme activity | – | 1 µM | relative to: DMSO control | remaining activity | 102%
COc1cc(Nc2nccc(-c3cnn4nc(OC)ccc34)n2)cc(C(F)(F)F)c1 | MAP3K20 | binding, competition with immobilised ligand | – | 1 µM | – | remaining binding | 100%
CC(C)=CC1OC(C)(C)C2C=C3C(=O)C(Cl)=CC(O)C3C3C(O)C4OC4C(=O)C132 (stereo not shown) | MAP3K20 | cell-free assay, competition with immobilised ligand | – | 10 µM | – | remaining binding | 92%
CNC(=O)C1CCN(c2cc(C)c(F)cc2NC(=O)c2ccc(-c3cc(O)ccc3C)c(C)c2)CC1 | MAP3K20 | binding, competition with immobilised ligand | – | 1 µM | – | remaining binding | 93%
NC(=O)[C@@H](O)C[C@H]1CCc2sc3ncnc(O[C@H]4CC[C@H](N5CCOCC5)CC4)c3c21 | MAP3K20 | enzyme activity, inhibitor | – | 10 µM | – | inhibition | 2%
CNC1C[S+]2CC[S+]3CC[S+](C1)[Ru-4]321([N]=C=S)[n]2c3ccc(OC)cc3c3c4c(c5cc(F)c[n+]1c5c32)C(=O)NC4=O (stereo not shown) | MAP3K20 | KinomeScan | – | 0.1 µM | relative to: untreated | remaining binding | 100%
CN1CC[C@@H](COc2cnc(C#N)cc2-c2ccn3nc(NC(=O)C4CC4)cc3c2)C1 | MAP3K20 | enzyme activity, inhibitor | – | 1 µM | – | inhibition | 17%

Some of these lines once more:
SMILES | target | assay | system | conditions | scale | measurement | value
CN1CC[C@@H](COc2cnc(C#N)cc2-c2ccn3nc(NC(=O)C4CC4)cc3c2)C1 | MAP3K20 | enzyme activity, inhibitor | – | 1 µM | – | inhibition | 17%
